# Experimental data from different studies.
# Every numbered part comes from another study and shows a few of its results, in no order.

# Block 1
# Target: Centromere-binding protein 1, full length, His-tagged (CBF1, Saccharomyces cerevisiae, UniProt P17106, residues 1-351)
# Sequence of UniProt P17106 (whole entry, looked up): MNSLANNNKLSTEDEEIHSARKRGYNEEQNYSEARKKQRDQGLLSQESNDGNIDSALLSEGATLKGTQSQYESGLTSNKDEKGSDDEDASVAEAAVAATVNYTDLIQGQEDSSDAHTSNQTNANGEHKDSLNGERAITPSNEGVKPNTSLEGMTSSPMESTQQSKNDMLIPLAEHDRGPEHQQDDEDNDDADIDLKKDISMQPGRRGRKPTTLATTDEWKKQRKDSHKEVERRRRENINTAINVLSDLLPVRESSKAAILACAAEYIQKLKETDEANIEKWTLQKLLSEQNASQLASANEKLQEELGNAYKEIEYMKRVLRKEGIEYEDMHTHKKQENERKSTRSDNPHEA
# Technique: competition protein-binding microarray
# Molecule type: double-stranded DNA, one strand shown
# Medium: in vitro
# Tested at: 2 µM
# Setting: whole 60-bp probe, lowest competitor level
# Together with: Pho4 competitor, 0.05 µM
# Direction: higher = stronger binding
# Constant ends, left off below: … GTCTTGATTCGCTTGACGCTGCTG
Oligonucleotide,fluorescence intensity
ACAAGTTCATCATTTCACGTGTGGAGCATAGTGTGG,532 a.u.
GCCATTCTCCATTCACACGTCAATCAGTCGTATTGG,89.3 a.u.
GGTTTTGTAGGACTAGGTGTGATGAGTGGTGGCTTT,81.9 a.u.
CCGGTTTAACCCCCCGGCGTGCTTTGGTAGGTGCCC,114 a.u.
TCAAACAAGATAGCGTTCGTGACAAAAGGGAGATGG,67.9 a.u.
AAAGCGGTAATTTGTCACCCGACTTCACATATCTAT,90.5 a.u.
TGAATACGTCTCTTGCTCGTGTGTTTTGCCATTATG,84.2 a.u.
CTTTCCCGATCTTGTCACCGTACTTTAGCACATTTG,70.3 a.u.
CGGGGTTAAGTTTGTGGGGTGGGTGGCTTGCAGCAG,65.9 a.u.
GACACATTTGCCAAACACATGACAGAAGTGGCAATG,401 a.u.
ATGGCTTTGGCTTTCCACATGGACATCAAGGTCTAC,82.8 a.u.
TTCGCTACAAAATAATGCGTGATGGTTTCAGTGAAG,102 a.u.
GGCAATAGGCTTTCTCTCGTGCTGTACCCCTAATGT,65.5 a.u.
AAAGCGGTAATTTGTCTTGTGGGTGCAGATATCTAT,75.5 a.u.
CACCATTTGATGTTGCACATGCGTTCGATATACCCC,125 a.u.
CTTTTCCGGTTGAGACTTGAGCAAGTGCTTCAGTTT,72.6 a.u.
TCGGAGGCCACTCACCACGGGAGGAGGCCAAGGCTG,60 a.u.
CATACCCAACCTTGGCACGTGTTTTAAGATATTTGT,2540 a.u.
CACAACAGTTCCAATCACGTGATGGTTACTGGACTT,10300 a.u.

# Block 2
# Target: Prothrombin, mature alpha-thrombin (F2, Homo sapiens, UniProt P00734)
# Technique: aptamer microarray, sandwich
# Molecule type: DNA with 2'F-ANA
# Medium: in vitro
# Tested at: 200 nM
# Setting: whole 15-mer aptamer, many near background
# Together with: Cy3 exosite-II aptamer, 400 nM
# Direction: higher = stronger binding
# Oligonucleotide: GGTTGGTGTGGTTGG
Modification,mean fluorescence intensity [a.u.]
2'F-ANA at 1 2 7 10,77.9
2'F-ANA at 2 7 10 11 14,92.9
2'F-ANA at 3 4 5 8 9 11 12 13 14 15,52.9
2'F-ANA at 1 5 7 8 10 12 14 15,46.3
2'F-ANA at 1 2 9 10 13 15,52.1
2'F-ANA at 2 4 5 6 8 12 13 15,94.5
2'F-ANA at 1 2 9 12 13 14,65.7
2'F-ANA at 2 4 6 8 10 11 13,120
2'F-ANA at 5 6 7 9 10 11 13,155
2'F-ANA at 3 4 5 7 8 10 13 14 15,85.2
2'F-ANA at 1 2 4 5 6 7 11 12 13,119
2'F-ANA at 1 5 6 7 8 10 11 14 15,62.1
2'F-ANA at 2 7 11 12 13,667
2'F-ANA at 8 10 11 14 15,94.2
2'F-ANA at 2 3 4 5 6 7 9 11 12 15,118
2'F-ANA at 1 3 5 6 7 8 9 10 11 12 14 15,52.9

# Block 3
# Target: Ras GTPase-activating protein-binding protein 1, full length (G3BP1, Homo sapiens, UniProt Q13283)
# Sequence of UniProt Q13283 (whole entry, looked up): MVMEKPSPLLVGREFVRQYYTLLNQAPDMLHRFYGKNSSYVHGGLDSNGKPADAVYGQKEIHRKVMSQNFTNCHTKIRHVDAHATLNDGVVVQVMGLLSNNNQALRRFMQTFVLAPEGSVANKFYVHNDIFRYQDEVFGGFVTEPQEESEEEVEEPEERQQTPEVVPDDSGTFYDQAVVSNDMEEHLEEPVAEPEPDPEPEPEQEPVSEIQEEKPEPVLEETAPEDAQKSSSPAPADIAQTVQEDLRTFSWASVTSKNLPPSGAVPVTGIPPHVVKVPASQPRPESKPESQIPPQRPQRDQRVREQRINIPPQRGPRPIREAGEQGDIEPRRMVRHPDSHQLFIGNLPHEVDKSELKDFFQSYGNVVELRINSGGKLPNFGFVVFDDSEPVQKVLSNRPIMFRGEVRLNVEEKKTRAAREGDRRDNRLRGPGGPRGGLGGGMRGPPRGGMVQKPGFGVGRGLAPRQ
# Technique: RNA Bind-n-Seq
# Molecule type: RNA
# Medium: in vitro
# Tested at: 200 nM
# Setting: whole 134-nt RNA, ends assumed
# Together with: 150 mM LiCl
# Baseline: input library
# Direction: higher = stronger binding
# All molecules: 7-deaza-guanosine replaces G
# Constant ends, left off below: GGGAGUUCUACAGUCCGACGAUC … UGGAAUUCUCGGGUGUCAAGG
Oligonucleotide,log2 enrichment
UAACUUUAGAGGAGGAUCUGAUGGAUAUGGCUGUGGACGUGGAUUUGGGGAUGGCUAUAAUGGGUAUGGAGGAGGACCUGGAGGUGGCAA,0.175
CACAGACAACACGCACCCACACAGACACAGAGGGAAGGGGUUGGGAUGGGGACAGGGUGCACAGCAGGGCGGGGUAGGACCCCACCCCCU,-0.619
UCAAGUCCUGUGCUACACAUCGUAUGUACCGAAUCGGAAAAAGGUUUUUGGAGGAAAGUAUUAUGUUACGCCGUUCGGAUCUGCACUUCC,-0.135
ACCAUGCAGGUGGGCAUCUUUGGGAAGUGGUGCAAGGGGGGGAUAGGGAGGGGGGUAACACUUUGGGAACAGGUGGUCCCAGGUCGUUUC,0.366
CCUGUGCUACACAUCGUAUGUACCGAAUCGGGGUUUUUUUGGGGAAAAAGGGGUUUGGGGAAAGUAUUAUGUUACGCCGUUCGGAUCUGC,-1.23
UGGCCCUGGUGGCAUGCGGGGAGGAAGAGGUGGCCUCGUGGAUCGUGGUGGUCCCGGUGGAAUGUUCAGAGGUGGCCGUGGUGGAGACAG,0.392
CAAGUCCUGUGCUACACAUCGUAUGUACCGAAUCGGUGGUUUUUUUGGAAAAAGGAAAGUAUUAUGUUACGCCGUUCGGAUCUGCACUUC,-0.478
CCUGUGCUACACAUCGUAUGUACCGAAUCGGGAAAAAAAGGAAAAAAAGGGGAAAAAAAGGAAAGUAUUAUGUUACGCCGUUCGGAUCUG,0.0831

# Block 4
# Target: RNA binding protein fox-1 homolog 2, RRM domain, GST-SBP tag (RBFOX2, Homo sapiens, UniProt O43251-10, residues 100-194)
# Technique: RNA Bind-n-Seq
# Molecule type: RNA
# Medium: in vitro
# Tested at: 365 nM
# Setting: natural RNA segment, single round, ends assumed
# Baseline: no-protein control
# Direction: higher = stronger binding
# Constant ends, left off below: GGGAGUUCUACAGUCCGACGAUC … UGGAAUUCUCGGGUGCCAA
# Residues (chain): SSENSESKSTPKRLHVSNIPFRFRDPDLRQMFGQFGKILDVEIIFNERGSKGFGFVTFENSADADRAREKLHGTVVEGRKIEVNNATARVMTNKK
Oligonucleotide,RBNS enrichment (R)
UAAUGAGACCCUGUCUCAAAAAAAGAAAAAAAAAUUUUUUGAAAUUUAGUAGGUUUUCACAAUUUUUUCUUUAGUAUAAUACAUAUUUUUCUAGCCGUUCUGAUCUGUAA,1.61
AUAUGUGGCCUCCGGGAGACACCUGCUUGGAAGGAGGCAGUGAUGGAGAUAGAGCCCCACUCUGAGUCUGGGCUCAGAGUGCCCUGACUGCUCUCCCCCACCCCAUCCCC,0.62
UCUCUUUUACACUCCCCUGUCCCCACCCCAGUGCACUCUUCUGGCCCAGGCAGCAAGCAAGCUGUGAACAGCUGGCCUGAGCUGUCGCUGUGGCUUGUGGCUCAUGCGCC,0.946
CUACAAUAAGAUUGUUGCCGUUAAGAAGACCUUGGAUGUUGUUCCAGUUAUGCUGGAUUCCACAGUGAAAUCAUUUAAAACCAUCUAAAUAAACCACUAUAUAUUUUAUG,0.512
GCUGGGCAGAGCUGACUCCUGCCCCGCUGUCCCUGAUGGAACCUUCCUUCCAGAGCUGUGGAAGAGAUGUUUGUGACCCCUCCCUUGGACUCUUGGGGGCCAAUCCCACU,0.307
AAAGUCAUUCCUUCCUUCCUUCUGUUUCAAGUCAUUGCUGCCAGAUCUGGCUUAAUAAGACUUGGUGUGGCUUAUCAGGUCACAUGUCCACCACAUCUUGAUUCUUGCAG,0.386
CACCUAGAGCUGCACAGGGGGCUUUCGGCACUUCCCUGGAACAGUUGUAGGCCUGGCCUUUGCCCAGGCAAUGGACCUUUGAUGCGAGGAACCUUGCUACUUCCCCACUG,0.27
CAGCAUGUAUUCCUGGCAUGGGCUCUCCUAGUGGUCCAUGUGCAUCCUUGCGCAUGUGCACUCGCUCGCAGACUGAUGACCCUGCUUGCUGCAGAUGAAUGGUCAACGCG,7.23

# Repeated from above (block 1):
Oligonucleotide,fluorescence intensity
GACACATTTGCCAAACACATGACAGAAGTGGCAATG,401 a.u.
TTCGCTACAAAATAATGCGTGATGGTTTCAGTGAAG,102 a.u.
ATGGCTTTGGCTTTCCACATGGACATCAAGGTCTAC,82.8 a.u.
TCAAACAAGATAGCGTTCGTGACAAAAGGGAGATGG,67.9 a.u.
CTTTTCCGGTTGAGACTTGAGCAAGTGCTTCAGTTT,72.6 a.u.
CACAACAGTTCCAATCACGTGATGGTTACTGGACTT,10300 a.u.
GGTTTTGTAGGACTAGGTGTGATGAGTGGTGGCTTT,81.9 a.u.
CACCATTTGATGTTGCACATGCGTTCGATATACCCC,125 a.u.
